Experimental data from different studies.
Lines come from different studies, so protocols differ. Values joined by “and” are separate records of one study, mostly repeats; a detail may differ. ± gives the spread as reported.
rep main protease: Replicase polyprotein 1ab, main protease (rep, Severe acute respiratory syndrome coronavirus 2, UniProt P0DTD1)
Spike glycoprotein: Spike glycoprotein (Severe acute respiratory syndrome coronavirus 2, UniProt P0DTC2)

O=C(O)c1cc(=O)cc(C(=O)O)o1 — inhibition (rep main protease; reporter gene (mKate2), inhibitor; 20 µM): -0.766%
CC(C)=CCC[C@](C)(O[C@@H]1O[C@H](CO[C@@H]2O[C@H](CO)[C@@H](O)[C@H](O)[C@H]2O)[C@@H](O)[C@H](O)[C@H]1O)[C@H]1CC[C@]2(C)[C@@H]1[C@H](O)C[C@@H]1[C@@]3(C)CC[C@H](O[C@@H]4O[C@H](CO)[C@@H](O)[C@H](O)[C@H]4O)C(C)(C)[C@@H]3CC[C@]12C — kon (Spike glycoprotein; binding, BLI): 1770 M⁻¹ s⁻¹
C#Cc1cncc(C(=O)N2CCC3(CC2)CN(C(=O)[C@H]2CCC[C@@H]2O)Cc2ccccc2O3)c1 — inhibition (rep main protease; enzyme activity, inhibitor; 5 µM, run 1): 9.3%
CCc1c(C(=O)C(N)=O)c2c(OCC(=O)O)cccc2n1Cc1ccccc1 — remaining activity (Daboia russelii venom phospholipase A2; enzyme activity, inhibitor; MH population; 0.1 µM, with: NOB substrate; baseline: venom alone): 92% and 93.5%
COc1ccc(C[C@@H]2c3cc(Oc4cc(C[C@@H]5c6cc(O)c(OC)cc6CCN5C)ccc4O)c(OC)cc3CCN2C)cc1 — kon (Spike glycoprotein; binding): 483 M⁻¹ s⁻¹
CC(C)C[C@H](NC(=O)[C@H](Cc1ccccc1)NC(=O)c1cnccn1)B(O)O — inhibition (rep main protease; reporter gene (mKate2), inhibitor; 20 µM): -0.662%
CC(=O)O[C@@H]1[C@H](N)[C@@H](OP(=O)(O)O)[C@@]2(C(=O)O)CS[C@@](O)(C(N)=O)[C@@H]1O2 — Kd (DNA-directed RNA polymerase subunit beta' / DNA-directed RNA polymerase subunit beta (rpoC/rpoB, Escherichia coli, UniProt P0A8T7+P0A8V2); binding to elongation complex, 6-MI fluorescence titration; wild-type RNAP; 3′-deoxy RNA 3′-end Cytosine): 1.1 ± 0.7 µM
CNC(=O)c1c(NC(=O)c2sc(=S)n(-c3ccc(C)cc3)c2N)sc2c1CCCC2 — Hill slope (Replicase polyprotein 1ab, nsp14 N7-methyltransferase (rep, Severe acute respiratory syndrome coronavirus 2, UniProt P0DTD1); N7-methyltransferase activity, inhibitor, Py-FLINT): 1.47 ± 0.32
CC[C@H](C)[C@H](NC(=O)[C@H](CC(C)C)NC(=O)[C@H](Cc1c[nH]c2ccccc12)NC(=O)[C@H](CCC(N)=O)NC(=O)[C@@H](NC(=O)[C@H](Cc1ccccc1)NC(=O)[C@H](C)NC(=O)[C@H](CCCCNC(=O)COCCOCCNC(=O)COCCOCCNC(=O)CC[C@H](NC(=O)CCCCCCCCCCCCCCCCCCC(=O)O)C(=O)O)NC(=O)[C@H](CCC(N)=O)NC(=O)[C@H](C)NC(=O)[C@@H](NC(=O)[C@H](CCCCN)NC(=O)[C@H](CC(=O)O)NC(=O)[C@H](CC(C)C)NC(=O)C(C)(C)NC(=O)[C@@H](NC(=O)[C@H](CO)NC(=O)[C@H](Cc1ccc(O)cc1)NC(=O)[C@H](CC(=O)O)NC(=O)[C@H](CO)NC(=O)[C@@H](NC(=O)[C@H](Cc1ccccc1)NC(=O)[C@@H](NC(=O)CNC(=O)[C@H](CCC(=O)O)NC(=O)C(C)(C)NC(=O)[C@@H](N)Cc1ccc(O)cc1)[C@@H](C)O)[C@@H](C)O)[C@@H](C)CC)[C@@H](C)CC)C(C)C)C(=O)N[C@@H](C)C(=O)NCC(=O)NCC(=O)N1CCC[C@H]1C(=O)N[C@@H](CO)C(=O)N[C@@H](CO)C(=O)NCC(=O)N[C@@H](C)C(=O)N1CCC[C@H]1C(=O)N1CCC[C@H]1C(=O)N1CCC[C@H]1C(=O)N[C@@H](CO)C(N)=O — Cmax (human, plasma; subcutaneous, 15.0 mg once weekly, week 23, multiple doses): 2930 ng/mL
O=C(NC[C@H](NC(=O)c1cncc2ccccc12)c1ccc2ccccc2c1)c1cn[nH]n1 — inhibition (rep main protease; enzyme activity, inhibitor; 5 µM, run 1): 13.6%
Nc1ncnc2c([C@@H]3N[C@H](CO)[C@@H](O)[C@H]3O)c[nH]c12 — inhibition (Zaire ebolavirus; viral replication, inhibitor; human Macrophage; 12.5 µM): 0%
CC[C@H](C)[C@H](NC(=O)[C@H](CC(C)C)NC(=O)[C@H](CO)NC(=O)[C@H](Cc1c[nH]cn1)NC(=O)[C@@H](NC(=O)[C@H](CC(C)C)NC(=O)[C@H](CO)NC(=O)[C@@H](NC(=O)[C@H](Cc1ccc(O)cc1)NC(=O)[C@H](CC(N)=O)NC(=O)[C@H](CC(N)=O)NC(=O)[C@@H](NC(=O)[C@H](CCC(=O)O)NC(=O)[C@H](CCCNC(=N)N)NC(=O)[C@H](CC(=O)O)NC(=O)[C@H](Cc1c[nH]c2ccccc12)NC(=O)[C@H](CCC(=O)O)NC(=O)[C@H](CCSC)NC(=O)[C@H](Cc1c[nH]c2ccccc12)NC(C)=O)[C@@H](C)CC)[C@@H](C)O)[C@@H](C)CC)C(=O)N[C@@H](CCC(=O)O)C(=O)N[C@@H](CCC(=O)O)C(=O)N[C@@H](CO)C(=O)N[C@@H](CCC(N)=O)C(=O)N[C@@H](CC(N)=O)C(=O)N[C@@H](CCC(N)=O)C(=O)N[C@@H](CCC(N)=O)C(=O)N[C@@H](CCC(=O)O)C(=O)N[C@@H](CCCCN)C(=O)N[C@@H](CC(N)=O)C(=O)N[C@@H](CCC(=O)O)C(=O)N[C@@H](CCC(N)=O)C(=O)N[C@@H](CCC(=O)O)C(=O)N[C@@H](CC(C)C)C(=O)N[C@@H](CC(C)C)C(=O)NCC(=O)N[C@@H](CO)C(=O)NCC(=O)N[C@@H](CSCC(=O)O[C@H]1CC[C@@]2(C)C(=CC[C@H]3[C@@H]4CC[C@H]([C@H](C)CCCC(C)(C)O)[C@@]4(C)CC[C@@H]32)C1)C(N)=O — Kd (membrane binding, di-8-ANEPPS dipole potential; HIV-like lipid LUVs): 3.91 ± 1.6 µM
CC(C)(C)[C@H](NC(=O)C(F)(F)F)C(=O)N1C[C@H]2[C@@H]([C@H]1C(=O)N[C@H](C#N)C[C@@H]1CCNC1=O)C2(C)C — participants discontinued due to adverse events (human, fasted; oral, 500 mg single dose, 28 days, no ritonavir): 1%
Nc1cccc(C(=O)NC[C@H](NC(=O)c2cnc3n[nH]nc3c2)c2ccc3ccccc3c2)c1 — inhibition (rep main protease; enzyme activity, inhibitor; 5 µM, mean of runs): 10.6%
Cn1cnc(Cn2c(=O)[nH]/c(=N\c3cc4cn(C)nc4cc3Cl)n(Cc3cc(F)c(F)cc3F)c2=O)n1 — treatment-related TEAE, Moderate severity (human, severe renal impairment; oral, 375 mg): 0%
C1=CCC2(CC1)COC(c1ccco1)OC2 (stereo not drawn) — inhibition (rep main protease; viral replication, Gluc reporter; SARS-CoV-2; 20 µM): 1.15%
CC1(C)[C@@H](O)CC[C@]2(C)[C@H]3C(=O)C=C4[C@@H]5C[C@@](C)(C(=O)O)CC[C@]5(C)CC[C@@]4(C)[C@]3(C)CC[C@@H]12 — kon (Spike glycoprotein; binding, BLI): 296 M⁻¹ s⁻¹
Cc1cc(=O)[nH]cc1C(=O)N1C[C@@]23CCCC[C@@]2(CN(C(=O)C[C@H]2NC(=O)NC2=O)C3)C1 — inhibition (rep main protease; enzyme activity, inhibitor; 5 µM, mean of runs): 11.3%
CC[C@H](C)[C@H](NC(=O)[C@H](CC(C)C)NC(=O)[C@H](Cc1c[nH]c2ccccc12)NC(=O)[C@H](CCC(N)=O)NC(=O)[C@@H](NC(=O)[C@H](Cc1ccccc1)NC(=O)[C@H](C)NC(=O)[C@H](CCCCNC(=O)COCCOCCNC(=O)COCCOCCNC(=O)CC[C@H](NC(=O)CCCCCCCCCCCCCCCCCCC(=O)O)C(=O)O)NC(=O)[C@H](CCC(N)=O)NC(=O)[C@H](C)NC(=O)[C@@H](NC(=O)[C@H](CCCCN)NC(=O)[C@H](CC(=O)O)NC(=O)[C@H](CC(C)C)NC(=O)C(C)(C)NC(=O)[C@@H](NC(=O)[C@H](CO)NC(=O)[C@H](Cc1ccc(O)cc1)NC(=O)[C@H](CC(=O)O)NC(=O)[C@H](CO)NC(=O)[C@@H](NC(=O)[C@H](Cc1ccccc1)NC(=O)[C@@H](NC(=O)CNC(=O)[C@H](CCC(=O)O)NC(=O)C(C)(C)NC(=O)[C@@H](N)Cc1ccc(O)cc1)[C@@H](C)O)[C@@H](C)O)[C@@H](C)CC)[C@@H](C)CC)C(C)C)C(=O)N[C@@H](C)C(=O)NCC(=O)NCC(=O)N1CCC[C@H]1C(=O)N[C@@H](CO)C(=O)N[C@@H](CO)C(=O)NCC(=O)N[C@@H](C)C(=O)N1CCC[C@H]1C(=O)N1CCC[C@H]1C(=O)N1CCC[C@H]1C(=O)N[C@@H](CO)C(N)=O — treatment-emergent ADA positive subjects (healthy subjects, single ascending dose; 1.0 mg, postbaseline): 0%
Cc1nc(N)c2ncn(C3CCN(C(=O)c4ccc(S(=O)(=O)F)cc4)CC3)c2n1 — kinact (cya (Bacillus anthracis, UniProt P40136)): 0.00103 s⁻¹
O=C(Nc1cc(C(F)(F)F)ccc1N1CCCCC1)c1ccncc1 — inhibition (rep main protease; reporter gene (mKate2), inhibitor; 20 µM): 1.76%

Excerpt of the above:
CC[C@H](C)[C@H](NC(=O)[C@H](CC(C)C)NC(=O)[C@H](Cc1c[nH]c2ccccc12)NC(=O)[C@H](CCC(N)=O)NC(=O)[C@@H](NC(=O)[C@H](Cc1ccccc1)NC(=O)[C@H](C)NC(=O)[C@H](CCCCNC(=O)COCCOCCNC(=O)COCCOCCNC(=O)CC[C@H](NC(=O)CCCCCCCCCCCCCCCCCCC(=O)O)C(=O)O)NC(=O)[C@H](CCC(N)=O)NC(=O)[C@H](C)NC(=O)[C@@H](NC(=O)[C@H](CCCCN)NC(=O)[C@H](CC(=O)O)NC(=O)[C@H](CC(C)C)NC(=O)C(C)(C)NC(=O)[C@@H](NC(=O)[C@H](CO)NC(=O)[C@H](Cc1ccc(O)cc1)NC(=O)[C@H](CC(=O)O)NC(=O)[C@H](CO)NC(=O)[C@@H](NC(=O)[C@H](Cc1ccccc1)NC(=O)[C@@H](NC(=O)CNC(=O)[C@H](CCC(=O)O)NC(=O)C(C)(C)NC(=O)[C@@H](N)Cc1ccc(O)cc1)[C@@H](C)O)[C@@H](C)O)[C@@H](C)CC)[C@@H](C)CC)C(C)C)C(=O)N[C@@H](C)C(=O)NCC(=O)NCC(=O)N1CCC[C@H]1C(=O)N[C@@H](CO)C(=O)N[C@@H](CO)C(=O)NCC(=O)N[C@@H](C)C(=O)N1CCC[C@H]1C(=O)N1CCC[C@H]1C(=O)N1CCC[C@H]1C(=O)N[C@@H](CO)C(N)=O — Cmax (human, plasma; subcutaneous, 15.0 mg once weekly, week 23, multiple doses): 2930 ng/mL
C1=CCC2(CC1)COC(c1ccco1)OC2 (stereo not drawn) — inhibition (rep main protease; viral replication, Gluc reporter; SARS-CoV-2; 20 µM): 1.15%
